# Published values from different studies.
# Lines come from different studies, so protocols differ. Values joined by “and” are separate records of one study, mostly repeats; a detail may differ. Numbers after ± are the reported error.
# Sequence of UniProt Q96RR4 (whole entry, looked up): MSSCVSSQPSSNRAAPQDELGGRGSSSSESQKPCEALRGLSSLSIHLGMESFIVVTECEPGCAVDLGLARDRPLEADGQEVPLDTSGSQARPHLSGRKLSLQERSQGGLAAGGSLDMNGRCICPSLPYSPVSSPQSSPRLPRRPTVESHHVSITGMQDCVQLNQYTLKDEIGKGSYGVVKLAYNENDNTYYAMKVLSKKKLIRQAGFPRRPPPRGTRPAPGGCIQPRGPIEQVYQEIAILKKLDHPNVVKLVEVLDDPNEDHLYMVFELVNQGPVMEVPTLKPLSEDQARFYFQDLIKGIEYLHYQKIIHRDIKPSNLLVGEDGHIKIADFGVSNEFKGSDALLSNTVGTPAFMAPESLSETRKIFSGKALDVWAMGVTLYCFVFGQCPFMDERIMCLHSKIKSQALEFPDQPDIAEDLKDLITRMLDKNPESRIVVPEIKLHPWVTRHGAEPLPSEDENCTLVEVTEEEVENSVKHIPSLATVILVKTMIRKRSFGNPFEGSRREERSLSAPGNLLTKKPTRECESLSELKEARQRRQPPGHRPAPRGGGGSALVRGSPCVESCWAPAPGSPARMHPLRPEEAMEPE
# Sequence of UniProt Q9HBY8 (whole entry, looked up): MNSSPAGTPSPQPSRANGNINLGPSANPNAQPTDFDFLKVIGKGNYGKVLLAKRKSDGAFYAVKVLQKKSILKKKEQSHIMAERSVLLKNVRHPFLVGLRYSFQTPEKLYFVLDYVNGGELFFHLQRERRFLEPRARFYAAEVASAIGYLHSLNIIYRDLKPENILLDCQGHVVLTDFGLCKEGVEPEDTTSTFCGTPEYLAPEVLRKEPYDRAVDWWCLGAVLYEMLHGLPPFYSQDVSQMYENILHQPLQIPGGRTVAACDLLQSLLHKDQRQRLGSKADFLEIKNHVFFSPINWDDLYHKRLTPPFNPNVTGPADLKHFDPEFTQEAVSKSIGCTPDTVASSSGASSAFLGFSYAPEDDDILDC
SMILES,tested on,test,test system,setting,how to read,endpoint,value
C=CCN1CCC23c4c5ccc(OC(=O)c6ccc(NC(=O)OC(C)(C)C)cc6)c4OC2C(=O)CCC3(O)C1C5 (stereo not shown),,,rat plasma,"0.5 h, added: loperamide 100 µM",,remaining compound,80.4% and 62.2% and 67.9%
CN1Cc2cc(Cl)ccc2-n2c(nnc2C2CCN(c3cccc([18F])n3)CC2)C1,,PET two-tissue compartment model,"rhesus monkey, amygdala","intravenous, dose not given, 60 min scan, baseline scan",,total volume of distribution,1.03 ± 0.34 mL/cm3
CC(C)[C@H](NC(=O)[C@@H](NC(=O)[C@H](CCCNC(=N)N)NC(=O)[C@H](CCCNC(=N)N)NC(=O)[C@H](CCCNC(=N)N)NC(=O)[C@H](CCC(N)=O)NC(=O)[C@H](CCCNC(=N)N)NC(=O)[C@H](CCCNC(=N)N)NC(=O)[C@H](CCCCN)NC(=O)[C@H](CCCCN)NC(=O)[C@H](CCCNC(=N)N)NC(=O)CN)[C@@H](C)O)C(=O)N[C@H](C(=O)N[C@@H](CO)C(=O)N1CCC[C@H]1C(=O)O)[C@@H](C)O,,,"ICR mice, female, stomach","intranasal, 5 mg/kg daily, 4 weeks",,organ weight,0.37 ± 0.036 g
CC(C)C[C@H](NC(=O)[C@H](C)NC(=O)[C@H](CCCCN)NC(=O)CCNC(=S)Nc1ccc2c(c1)C(=O)OC21c2ccc(O)cc2Oc2cc(O)ccc21)C(=O)N[C@@H](CCC(=O)O)C(=O)N[C@H](C(=O)N[C@@H](CC(C)C)C(=O)N[C@@H](CCCNC(=N)N)C(=O)N[C@@H](CCCNC(=N)N)C(=O)N[C@H](C(=O)NCC(=O)N[C@@H](CC(=O)O)C(=O)NCC(=O)N[C@H](C(=O)N[C@@H](CCC(N)=O)C(=O)N[C@@H](CCCNC(=N)N)C(=O)N[C@@H](CC(N)=O)C(=O)N[C@@H](Cc1c[nH]cn1)C(=O)N[C@@H](CCC(=O)O)C(=O)N[C@H](C(=O)N[C@@H](C)C(=O)N[C@@H](Cc1ccccc1)C(N)=O)[C@@H](C)O)C(C)C)C(C)C)[C@@H](C)O,,circular dichroism,potassium phosphate buffer,"20 µM, pH 7.5",,α-helicity,18%
CC[C@H](C)[C@H](NC(=O)[C@H](CCCNC(=N)N)NC(=O)[C@H](CCCCN)NC(=O)[C@H](Cc1ccc(O)cc1)NC(=O)[C@H](CC(=O)O)NC(=O)[C@H](C)NC(=O)CNC(=O)CCOCCOCCOCCNC(=O)CN1CCN(CC(=O)O)CCN(CC(=O)O)CCN(CC(=O)O)CC1)C(=O)N[C@H](C(=O)N[C@H](C(=O)N[C@@H](CCCCN)C(=O)N[C@H](C(=O)N[C@@H](CC(N)=O)C(N)=O)C(C)C)C(C)C)[C@@H](C)O [copper-64 labelled],,ex vivo gamma counting,"C57BL/6J male mice, B16-F10 tumour, bone","intravenous, 1.85 MBq, 20 min",,tissue uptake,0.899 ± 0.061 %ID/g
CC(C)C[C@@H](NC(=O)[C@@H](CCCNC(=N)N)NC(=O)[C@@H](Cc1c[nH]cn1)NC(=O)[C@@H](Cc1c[nH]c2ccccc12)NC(=O)[C@@H](Cc1c[nH]cn1)NC(=O)[C@@H](Cc1ccccc1)NC(=O)[C@H](NC(=O)[C@@H](Cc1ccc(O)cc1)NC(=O)CNC(=O)CNC(=O)CCOCCOCCOCCNC(=O)CN1CCN(CC(=O)O)CCN(CC(=O)O)CC1)[C@H](C)O)C(=O)N[C@H](CC(N)=O)C(=O)N1CCC[C@@H]1C(=O)O [gallium-68 labelled],,OLINDA/EXM,"adult male human, Gallbladder wall",extrapolated from C57BL/6 mice,,organ absorbed dose,0.00979 ± 0.00011 mSv/MBq
CC(C)(C)C(=O)OCOP(=O)(OCOC(=O)C(C)(C)C)C1CCCN(O)C1=O (stereo not shown),SK-MEL-2,,,,,log LC50,-4.34 log M
CS(C)(=O)=Nc1ccc(-c2ccc(-c3nc4cc(O[C@@H]5CO[C@H]6[C@@H]5OC[C@H]6O)[nH]c4cc3F)cc2)cc1,"Serine/threonine-protein kinase Sgk2 (SGK2, Homo sapiens, UniProt Q9HBY8)","enzyme activity, inhibitor",,10 µM,,inhibition,-6%
CCCCC[C@H]1C(=O)N[C@H](C)C(=O)N(C)[C@@H](CCCCC)C(=O)N[C@H](C)C(=O)N(C)[C@@H](CCCCC)C(=O)N[C@H](C)C(=O)N(C)[C@@H](CCCCC)C(=O)N[C@H](C)C(=O)N1C,,PAMPA,,"500 µM, pH 7.4, UV/ELSD/MS detection",,log Papp,-6.15
CC(CCC(=O)NCC(=O)O)C1CCC2C3C(O)CC4CC(OC5OC(C(=O)O)C(O)C(O)C5O)CCC4(C)C3CCC12C (stereo not shown),,,"men, T/T genotype, plasma","dose not given, geometric mean",,plasma concentration,37.3 ng/mL
C[C@H](O)[C@@H](NC(=O)[C@H]1CCCN1C(=O)[C@@H](CCCCN)NC(=O)[C@@H](CO)NC(=O)[C@@H](Cc1ccc(O)cc1)NC(=O)[C@@H](CC(N)=O)NC(=O)CCOCCOCCOCCNC(=O)CN1CCN(CC(=O)O)CCN(CC(=O)O)CCN(CC(=O)O)CC1)C(=O)N[C@H](CC(=O)O)C(=O)N[C@H](CCCNC(=N)N)C(=O)N[C@H](CCC(N)=O)C(=O)N[C@H](Cc1ccc(O)cc1)C(=O)N[C@H](Cc1c[nH]cn1)C(=O)N[C@H](Cc1ccccc1)C(N)=O [gallium-68 labelled],,,"BALB/c nude mice U-87 MG tumour, bone","intravenous, 1.85 MBq, 0.5 h, radiolabelled",,tissue uptake,0.85 ± 0.51 %ID/g
CN(C)[C@H]1C[C@@]23CC[C@@]4(O2)C(=CC[C@]2(C)[C@@H](c5ccc6ccncc6c5)CC[C@H]24)C=C3[C@@H](O)[C@@H]1O,"Calcium/calmodulin-dependent protein kinase kinase 2 (CAMKK2, Homo sapiens, UniProt Q96RR4)","ATP probe labelling, inhibitor, KiNativ profiling",,1 µM,,inhibition,-1.5%
Cc1ccccc1-c1ccc(-c2nc(-c3ccc(CN(C)CCCC(=O)O)c([18F])c3)no2)cc1C(F)(F)F,,,"rat, brain",2 h,,tracer uptake,0.38 %ID/g
COc1ccccc1-c1n[nH]c2nc(NC3CCN(C(=O)Cc4ccc(F)cc4F)CC3)ncc12,,"bead binding, competition bead pull-down, refers to: LMJF.21.1090",Leishmania donovani extract,10 µM,baseline: vehicle,relative abundance,0.87
O=C1CC[C@H](N2Cc3cc(N4CCNCC4)ccc3C2=O)C(=O)N1,,,"male Sprague-Dawley rat, pooled plasma","oral, 20 mg/kg",,share of plasma AUC(0-72h),15%
CC[C@H](C)[C@H](NC(=O)[C@H](Cc1ccccc1)NC(=O)[C@H](CCC(=O)O)NC(=O)[C@H](CCCNC(=N)N)NC(=O)[C@@H](NC(=O)[C@H](C)NC(=O)[C@H](CCC(=O)O)NC(=O)[C@H](CCC(=O)O)NC(=O)[C@H](CCC(=O)O)NC(=O)[C@H](CC(C)C)NC(=O)[C@H](Cc1ccc(O)cc1)NC(=O)[C@H](CCCCN)NC(=O)[C@H](CO)NC(=O)[C@H](CC(C)C)NC(=O)[C@H](CC(=O)O)NC(=O)[C@H](CO)NC(=O)[C@@H](NC(=O)[C@H](Cc1ccccc1)NC(=O)[C@@H](NC(=O)CNC(=O)[C@H](CCC(N)=O)NC(=O)[C@@H](CO)NC(=O)[C@@H](N)Cc1c[nH]cn1)[C@@H](C)O)[C@@H](C)O)C(C)C)C(=O)N[C@@H](C)C(=O)N[C@@H](Cc1c[nH]c2ccccc12)C(=O)N[C@@H](CC(C)C)C(=O)N[C@@H](CCCCN)C(=O)N[C@@H](CC(N)=O)C(=O)NCC(=O)NCC(=O)N1CCC[C@H]1C(=O)N[C@@H](CO)C(=O)N[C@@H](Cc1ccc(O)cc1)C(=O)N[C@@H](CO)C(=O)N[C@@H](CCSC)C(=O)N[C@@H](CCC(=O)O)C(=O)N[C@@H](Cc1c[nH]cn1)C(=O)N[C@@H](Cc1ccccc1)C(=O)N[C@@H](CCCNC(=N)N)C(=O)N[C@@H](Cc1c[nH]c2ccccc12)C(=O)NCC(=O)N[C@@H](CCCCN)C(=O)N1CCC[C@H]1C(=O)N[C@H](C(N)=O)C(C)C,,,"DIO male Wistar rats, serum","dose not given, 10 weeks, fasted",,AST,106 ± 8 U/L
CC[C@H](C)[C@H](NC(=O)[C@H](CCCN)NC(=O)[C@H](CCCNC(=N)N)NC(=O)[C@@H]1CCCN1C(=O)[C@@H]1CCCN1C(=O)[C@H](CCCNC(=N)N)NC(=O)[C@@H]1CCCN1C(=O)[C@H](CCCNC(=N)N)NC(=O)[C@@H]1CCCN1C(=O)[C@H](CC(C)C)NC(=O)[C@H](Cc1ccc(O)cc1)NC(=O)[C@@H]1CCCN1C(=O)[C@@H]1CCCN1C(=O)[C@H](CCCCN)NC(=O)[C@H](CC(=O)O)NC(=O)[C@@H](N)C(C)C)C(=O)N[C@@H](Cc1ccc(O)cc1)C(=O)N[C@@H](CC(N)=O)C(=O)N[C@@H](CCCN)C(N)=O,,competitive ELISA,"mouse CD-1, female, plasma","subcutaneous, 4.34 µmol/kg",,AUMC(0-inf),4.8 µg·h²/mL
CCCCCCCCCCCCCCCC(=O)N[C@@H](CCC(=O)NCCOCCOCCC(=O)NCCOCCOCCC(=O)NCCCC[C@H](NC(=O)[C@H](CC(=O)O)NC(=O)[C@H](CC(C)C)NC(=O)[C@H](Cc1ccc(O)cc1)NC(=O)[C@H](CCCCN)NC(=O)[C@H](CO)NC(=O)[C@H](Cc1ccc(O)cc1)NC(=O)[C@H](CC(=O)O)NC(=O)[C@H](CO)NC(=O)[C@@H](NC(=O)[C@H](Cc1ccccc1)NC(=O)[C@@H](NC(=O)CNC(=O)[C@H](CCC(N)=O)NC(=O)[C@@H](CO)NC(=O)[C@@H](N)Cc1c[nH]cn1)[C@@H](C)O)[C@@H](C)O)C(=O)N[C@@H](CCCNC(=N)N)C(=O)N[C@@H](CCCNC(=N)N)C(=O)N[C@@H](C)C(=O)N[C@@H](CCC(N)=O)C(=O)N[C@@H](CC(=O)O)C(=O)N[C@@H](Cc1ccccc1)C(=O)N[C@H](C(=O)N[C@@H](CCC(N)=O)C(=O)N[C@@H](Cc1c[nH]c2ccccc12)C(=O)N[C@@H](CC(C)C)C(=O)N[C@@H](CC(C)C)C(=O)N[C@@H](CC(N)=O)C(=O)N[C@H](C(=O)NCC(=O)NCC(=O)N1CCC[C@H]1C(=O)N[C@@H](CO)C(=O)N[C@@H](CO)C(=O)NCC(=O)N[C@@H](C)C(=O)N1CCC[C@H]1C(=O)N1CCC[C@H]1C(=O)N1CCC[C@H]1C(=O)N[C@@H](CO)C(N)=O)[C@@H](C)O)C(C)C)C(=O)O,,refers to: ALT,"Sprague-Dawley rat, male","subcutaneous, 100 µg/kg once daily, 14 days",,serum enzyme activity,45 ± 17.3 U/L
O=C1NC2(CC2)COc2ncc(F)cc2[C@H]2COCCN2c2ccn3ncc1c3n2,,,"Sprague-Dawley rat, female, kidneys","oral, 5 mg/kg/day, 4 weeks, end of treatment",,organ-to-brain weight ratio,113 ± 13.1%
CN(C)CCCNC(=O)C[C@H](Cc1ccc(F)cc1)NC(=O)[C@@H](Cc1ccc(Cl)cc1Cl)NC(=O)[C@H](N)Cc1ccccc1C#N,,metabolic stability,"human, liver microsomes",1 µM,,microsomal CLint,91 µL/min/mg
CC[C@H](C)[C@H](NC(=O)[C@H](CCCCN)NC(=O)CNC(=O)[C@H](CC(C)C)NC(=O)[C@H](Cc1ccccc1)NC(=O)[C@H](CCCCN)NC(=O)[C@H](CO)NC(=O)[C@H](Cc1ccccc1)NC(=O)[C@H](Cc1c[nH]c2ccccc12)NC(=O)[C@H](CCC(N)=O)NC(=O)[C@@H](NC(=O)[C@H](Cc1ccccc1)NC(=O)CCCCCNC(=O)CN1CCN(CC(=O)O)CCN(CC(=O)O)CCN(CC(=O)O)CC1)C(C)C)C(=O)N[C@@H](CCC(=O)O)C(=O)N1CCC[C@H]1C(=O)N[C@@H](CC(=O)O)C(=O)N[C@H](C(=O)N[C@@H](CO)C(=O)N[C@@H](CCC(N)=O)C(=O)N[C@H](C(=O)N[C@@H](CCC(N)=O)C(=O)N[C@@H](CC(=O)O)C(=O)N1CCC[C@H]1C(=O)N[C@@H](CC(N)=O)C(=O)N[C@@H](CC(=O)O)C(=O)N[C@@H](CCC(N)=O)C(=O)N[C@@H](Cc1ccc(O)cc1)C(=O)N[C@@H](CCC(=O)O)C(=O)N1CCC[C@H]1C(=O)N[C@@H](Cc1ccccc1)C(=O)O)C(C)C)C(C)C [copper-64 labelled],,,"C57BL/6 male mouse, tumour-naive, blood",24 h,,tissue uptake,1.15 ± 0.06 %ID/g
O=C(O)CC[C@H](NC(=O)[C@H](CCC(=O)O)NC(=O)[C@H](CCC(=O)O)NC(=O)[C@H](CCC(=O)O)NC(=O)[C@H](CCC(=O)O)NC(=O)CNC(=O)[C@H](CCC(=O)O)NC(=O)CNC(=O)[C@H](CCC(=O)O)NC(=O)[C@@H](Cc1ccccc1)NC(=O)[C@@H](Cc1ccccc1)NC(=O)Cc1ccc2ccccc2c1)C(=O)O,,circular dichroism,PBS,"500 µM, pH 9, above CMC, second peak",,CD negative peak wavelength,212 nm

# Some of these lines once more:
SMILES,tested on,test,test system,setting,how to read,endpoint,value
C[C@H](O)[C@@H](NC(=O)[C@H]1CCCN1C(=O)[C@@H](CCCCN)NC(=O)[C@@H](CO)NC(=O)[C@@H](Cc1ccc(O)cc1)NC(=O)[C@@H](CC(N)=O)NC(=O)CCOCCOCCOCCNC(=O)CN1CCN(CC(=O)O)CCN(CC(=O)O)CCN(CC(=O)O)CC1)C(=O)N[C@H](CC(=O)O)C(=O)N[C@H](CCCNC(=N)N)C(=O)N[C@H](CCC(N)=O)C(=O)N[C@H](Cc1ccc(O)cc1)C(=O)N[C@H](Cc1c[nH]cn1)C(=O)N[C@H](Cc1ccccc1)C(N)=O [gallium-68 labelled],,,"BALB/c nude mice U-87 MG tumour, bone","intravenous, 1.85 MBq, 0.5 h, radiolabelled",,tissue uptake,0.85 ± 0.51 %ID/g
CN(C)[C@H]1C[C@@]23CC[C@@]4(O2)C(=CC[C@]2(C)[C@@H](c5ccc6ccncc6c5)CC[C@H]24)C=C3[C@@H](O)[C@@H]1O,"Calcium/calmodulin-dependent protein kinase kinase 2 (CAMKK2, Homo sapiens, UniProt Q96RR4)","ATP probe labelling, inhibitor, KiNativ profiling",,1 µM,,inhibition,-1.5%
